Published values of several laboratories.
Each numbered part is a random draw from the data of one study; scales do not carry over between parts.

Sample 1 — method: RNA Bind-n-Seq; form: RNA; matrix: in vitro; concentration: 365 nM; reference: no-protein control; reading: higher = stronger binding
Target: RNA binding protein fox-1 homolog 2, RRM domain, GST-SBP tag (RBFOX2, Homo sapiens, UniProt O43251-10, residues 100-194)
Notes: natural RNA segment, single round, ends assumed
Constant ends, left off below: GGGAGUUCUACAGUCCGACGAUC … UGGAAUUCUCGGGUGCCAA
| Oligonucleotide | RBNS enrichment (R) |
| --- | --- |
| UUAGCAUUGUGAGAUGGACUCAGCUCAGGGCGCCCCUAAGGCUCGGAGGCGGCCUUCUGGGUCCCCACCUCUCCUGGUUCCGCUGCUGCUCUCCCUGCUGAUGAUAAAGU | 0.771 |
| AGGACAGUCUAUCUUAAAUUUCAUAUGAGAACUCCUUCCUCCCUUUGAAGAUCUGUCCAUAUUCAGGAAUCUGAGAGUGUAAAAAAGGUACCAAUCAUUGAUUUUUUUUU | 1.17 |
| AUGAAGCAAAGUUCCCUCUCAGCAAACACUGAGAGGCCAUGGAGAAGGACUUCUAGAAUGAAUGAAAGGGGUGGAUGGAAAGGUUUGAUUUCCUAUCUAGAGAUGGAAGA | 1.23 |
| AUGAUUUGCAUGAUAUCUUGAAACUGGGGGAAGGGGGCAUGCCAAGUUGGGCAUCACUUCGUCUUAGCAGUUAGUGGAUUACUGAUUACUAAAAUAGGUUAAUAGUAAGC | 3.71 |
| AUUAGAUACUUGUCACUGCCUAUACCUGCAGCUGAACUGAAUGGUACUUCGUAUGUUAAUAGUUGUUCUGAUAAAUCAUGCAAUUAAAGUAAAGUGAUGCAACAUCUUGU | 0.507 |
| CAUAUUUGUAUUUAUUUCCAAAAUUAAAUUGUAAGCUCCUUGAGGGCAGGAAUAAUAACUUUUACAUUUGUAUCUCUGCACCCCCGAGUGCCUAGUAUAGUGCUGAGCAC | 0.451 |
| GCUGAUCAGAAUUUUACCAAAAUUCAGAACAUCCUCCAAUUCCACAGUCUCUGGGAGACUUUCCCUAAGAGGCGACUUCCUCUCCAGCCUUCUCUCUCUGGUCAGGCCCA | 0.467 |
| GCUCGGCCUGGGGCUAAAAGGACUUUGCACUGCCAUUUCUGAGGCAGGAGUCACAGUUGAGAGCUGGGCUUCCUGCCUCUUACAUACAAUAAAGAGAUUGCUAACACUGG | 1.23 |

Sample 2 — method: aptamer microarray, sandwich; form: DNA with 2'F-ANA; matrix: in vitro; concentration: 200 nM; together with: Cy3 exosite-II aptamer, 400 nM; reading: higher = stronger binding; oligonucleotide: GGTTGGTGTGGTTGG
Target: Prothrombin, mature alpha-thrombin (F2, Homo sapiens, UniProt P00734)
Notes: whole 15-mer aptamer, many near background
| Modification | mean fluorescence intensity [a.u.] |
| --- | --- |
| 2'F-ANA at 1 11 12 13 14 | 245 |
| 2'F-ANA at 1 2 4 7 9 12 13 14 | 53.8 |
| 2'F-ANA at 1 4 5 6 8 9 11 14 15 | 92.6 |
| 2'F-ANA at 2 3 5 6 8 11 12 13 15 | 126 |
| 2'F-ANA at 1 3 4 5 6 11 12 13 14 15 | 47.6 |
| 2'F-ANA at 2 5 6 10 11 12 13 | 50.4 |
| 2'F-ANA at 2 6 8 12 14 | 187 |
| 2'F-ANA at 1 3 8 9 12 14 15 | 165 |
| 2'F-ANA at 1 2 3 5 6 8 9 13 14 | 45.7 |
| 2'F-ANA at 2 3 5 6 10 11 13 14 | 47.1 |
| 2'F-ANA at 1 2 3 4 11 12 15 | 253 |
| 2'F-ANA at 1 2 3 4 5 7 8 9 10 11 13 | 47.3 |
| 2'F-ANA at 1 3 7 10 12 13 14 | 61.2 |
| 2'F-ANA at 1 7 9 10 11 12 13 15 | 65.2 |
| 2'F-ANA at 1 6 7 9 10 11 12 13 | 59.4 |
| 2'F-ANA at 1 2 3 9 12 | 480 |
| 2'F-ANA at 1 2 3 4 5 6 7 8 9 10 11 12 | 54.1 |
| 2'F-ANA at 2 3 4 8 9 10 14 15 | 173 |

Sample 3 — method: RNA Bind-n-Seq; form: RNA; matrix: in vitro; concentration: 200 nM; notes: whole 134-nt RNA, ends assumed; together with: 150 mM LiCl; reference: input library; reading: higher = stronger binding; library: 7-deaza-guanosine replaces G
Target: Fragile X messenger ribonucleoprotein 1, C-terminal low-complexity region (Fmr1, Mus musculus, UniProt P35922)
Constant ends, left off below: GGGAGUUCUACAGUCCGACGAUC … UGGAAUUCUCGGGUGUCAAGG
| Oligonucleotide | log2 enrichment |
| --- | --- |
| UCCUGUGCUACACAUCGUAUGUACCGAAUCGGGGAAAGGGGAAAAAGGGGUUUUUGGGGAAAGUAUUAUGUUACGCCGUUCGGAUCUGCA | 0.334 |
| GUCCUGUGCUACACAUCGUAUGUACCGAAUCGGGGUGGGGAAAAAGGGGUUUUUGGGGAAAGUAUUAUGUUACGCCGUUCGGAUCUGCAC | 0.0832 |
| CCUGUGCUACACAUCGUAUGUACCGAAUCGGGGAAAAAAGGGAAAAAAGGAAAAAAGGGGAAAGUAUUAUGUUACGCCGUUCGGAUCUGC | 0.315 |
| CUGUGCUACACAUCGUAUGUACCGAAUCGGGAAAAAAAGGGUUUUUUUGGGAAAAAAAGGGAAAGUAUUAUGUUACGCCGUUCGGAUCUG | -1.86 |
| AACAUGCAGGUGGGCAUCUUUGGGAAGUGGGGCAAGGGGGGGAUAGGGAGGGGGGUAACACUUUGGGAACAGGUGGUCCCAGGUCGUUUC | 1.35 |
| AUGGACUUGCACAUGAUGAACUGUGAACUUCUAGCCACAUGUAGUGCCCUUGGGUACUUGGAGGGAGACACUUACCAUAAGGAACCAGAU | -1.78 |
| UCCUGUGCUACACAUCGUAUGUACCGAAUCGGAAAAAAGGGAAAAAAGGGGAAAAAAGGAAAGUAUUAUGUUACGCCGUUCGGAUCUGCA | -0.665 |
| GUCCUGUGCUACACAUCGUAUGUACCGAAUCGGGGUUUUUGGGGUUUGGGGUUUGGGGAAAGUAUUAUGUUACGCCGUUCGGAUCUGCAC | -0.823 |

Sample 4 — method: protein binding microarray; form: double-stranded DNA, one strand shown; matrix: in vitro; concentration: not given; reference: not given; reading: higher = stronger binding
Target: Histone acetyltransferase KAT6A, winged helix 1, GST fusion (KAT6A, Homo sapiens, UniProt Q92794, residues 1-85)
Notes: 8-mer, flanks averaged, mean of 2 arrays, mostly near background
Construct (chain): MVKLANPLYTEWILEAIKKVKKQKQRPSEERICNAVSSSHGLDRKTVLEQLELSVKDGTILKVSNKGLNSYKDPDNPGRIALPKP
| Oligonucleotide | E-score |
| --- | --- |
| GCAACTCA | -0.125 |
| CAGCGTTA | 0.0726 |
| CATATATG | -0.245 |
| CGAGAGTA | -0.0364 |
| AGACTTCC | -0.0772 |
| ACTTCTTG | -0.126 |
| ATACATCG | -0.0503 |
| AGAGGACG | -0.00933 |
| CGATAAAC | 0.111 |
| CCAGGTTA | -0.0854 |
| CAGAAGGG | -0.135 |
| ACGATTTC | -0.0478 |
| ATTGGGAG | -0.287 |
| CCAAACGG | 0.201 |
| GGGCAAAC | 0.0851 |
| AGGTAGCG | 0.128 |
| AAAGCCAC | -0.253 |
| CACAATTC | -0.118 |
| CCCGGGAA | 0.332 |
| CTGCGTAA | 0.226 |
| ACAATCTC | 0.0678 |
| GGTAAAGA | -0.0435 |
| GGCTTTGA | 0.0267 |
| AGACGGAG | -0.0133 |
| AGAAACTC | -0.0925 |

Sample 5 — method: RNA Bind-n-Seq; form: RNA; matrix: in vitro; concentration: not given; reference: input RNA pool; reading: higher = stronger binding
Target: RING finger protein unkempt homolog, zinc fingers 1-6, GST-SBP tag (UNK, Homo sapiens, UniProt Q9C0B0, residues 30-357)
UniProt Q9C0B0, sequence (30-357, looked up): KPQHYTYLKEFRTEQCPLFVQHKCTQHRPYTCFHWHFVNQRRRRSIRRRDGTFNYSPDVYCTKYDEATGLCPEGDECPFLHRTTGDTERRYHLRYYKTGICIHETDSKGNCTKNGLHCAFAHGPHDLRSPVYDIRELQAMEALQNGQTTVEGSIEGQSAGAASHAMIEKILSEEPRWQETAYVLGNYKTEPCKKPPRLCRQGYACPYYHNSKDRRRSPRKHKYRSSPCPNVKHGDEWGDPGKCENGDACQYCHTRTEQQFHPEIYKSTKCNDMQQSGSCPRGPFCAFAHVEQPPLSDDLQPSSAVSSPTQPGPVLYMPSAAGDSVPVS
Notes: RNA with constant flanks, human-mouse chimeric sites, ends assumed
Constant ends, left off below: GGGAGUUCUACAGUCCGACGAUC … CAACAGAGGAUUGAGCAUCA
| Oligonucleotide | bound/input enrichment [ratio] |
| --- | --- |
| GGUGGGGUGGUCAUUGCCGUUUGAGCUGCUGAUUUUCAUGAGUCGCCUUCAAAACUCUCGUGUAGGGUUGACACUGUGGGGGGGUGGGGGAUCCAGCUUAUUCUUUUAUUUUCAAGUCCA | 0.452 |
| UACUACUAUGAUGGUGAUAUUGGCAAUUAUUAUUAUGGACAGGGUCAUCCCAUGAAGCCUCAUAGAAUCCGGAUGACUCAUAACUUGCUGCUAAAUUAUGGUUUAUACAGAAAAAUGGAA | 0.287 |
| UUUGUAAUAUCUGUAAAAGGUUCCCCCCCCUACUGUCCAAAAAAUAUGCAUGUAUAGUAAUUAGGACUUCAUUCCUCCAUGUUUUCUUCCCUUAUCUUACUGUCAUUGUCCUUAAACCUU | 1.63 |
| UUGAAAACUGAUUCAAGUAAGUUUGAGUAUCACAAUGUUAGCUUUCUAAUUCCAUAAAAGUACUUGGUUUUUACAGUAACCCCACAUACAUCACCCCAGCGCCAUUUAGAUCAGCUUACU | 1.78 |
| GGGACUGAUUCAUCCCAAGGACAGGCCACCCCAUUUGAUGCCUGGACUGACGACAGUAUGGAAGGGCCUAGUCAAAAUUUUGAAGCUGAGUCAAUUCAGGAUGCCAUGAGUAUGGAAGAG | 0.423 |
| GAGCGUCUUGCCCGCACUGGGAUCAUCGUGACCACGAGUGAGGCUGUCCUCCUACAGCUGGUGGCUGAUAAGGACCACCCGAAGUUCAAGGAAAUUCAGAACCUAAUUAAGGCGAGUGCC | 0.113 |
| GGCCUGGGACCGUCCUGGGCUAGUACAAUAGCGGCAGUGGAGGCUCAGAGAGGAAAGUUUGUUAGUGGAGGCAGUGGUAGAGGCCGUCAUGUACGGUCCUUUACUCGAUAGAUGUGUUCU | 0.627 |
| AUGGUUGUGAAAGGUGUGAUCUAAAAACAAGAUGACUUUUCCUGGCACAUAUUCCAAAGCAAAGACUUUGUUGCCUGCUGCUUAUUGUCUAAUUUACAGGGAUAUUUAAUUUUGUCAGGU | 0.198 |

A few entries again (sample 5):
| Oligonucleotide | bound/input enrichment [ratio] |
| --- | --- |
| UACUACUAUGAUGGUGAUAUUGGCAAUUAUUAUUAUGGACAGGGUCAUCCCAUGAAGCCUCAUAGAAUCCGGAUGACUCAUAACUUGCUGCUAAAUUAUGGUUUAUACAGAAAAAUGGAA | 0.287 |
| UUUGUAAUAUCUGUAAAAGGUUCCCCCCCCUACUGUCCAAAAAAUAUGCAUGUAUAGUAAUUAGGACUUCAUUCCUCCAUGUUUUCUUCCCUUAUCUUACUGUCAUUGUCCUUAAACCUU | 1.63 |
| UUGAAAACUGAUUCAAGUAAGUUUGAGUAUCACAAUGUUAGCUUUCUAAUUCCAUAAAAGUACUUGGUUUUUACAGUAACCCCACAUACAUCACCCCAGCGCCAUUUAGAUCAGCUUACU | 1.78 |
| GGGACUGAUUCAUCCCAAGGACAGGCCACCCCAUUUGAUGCCUGGACUGACGACAGUAUGGAAGGGCCUAGUCAAAAUUUUGAAGCUGAGUCAAUUCAGGAUGCCAUGAGUAUGGAAGAG | 0.423 |
| GAGCGUCUUGCCCGCACUGGGAUCAUCGUGACCACGAGUGAGGCUGUCCUCCUACAGCUGGUGGCUGAUAAGGACCACCCGAAGUUCAAGGAAAUUCAGAACCUAAUUAAGGCGAGUGCC | 0.113 |
| GGCCUGGGACCGUCCUGGGCUAGUACAAUAGCGGCAGUGGAGGCUCAGAGAGGAAAGUUUGUUAGUGGAGGCAGUGGUAGAGGCCGUCAUGUACGGUCCUUUACUCGAUAGAUGUGUUCU | 0.627 |
| AUGGUUGUGAAAGGUGUGAUCUAAAAACAAGAUGACUUUUCCUGGCACAUAUUCCAAAGCAAAGACUUUGUUGCCUGCUGCUUAUUGUCUAAUUUACAGGGAUAUUUAAUUUUGUCAGGU | 0.198 |
